Measurements collected from several papers.
Protocols differ between the studies behind these lines. ± gives the spread as reported.
RMS3: RMS3 (Lathyrus oleraceus, UniProt A0A109QYD3)

SMILES	target	assay	system	conditions	Kd
C[C@H](NC(=O)[C@H](Cc1c[nH]cn1)NC(=O)[C@H](CO)NC(=O)[C@H](CC(=O)O)NC(=O)CCCC[C@@H]1SC[C@@H]2NC(=O)N[C@@H]21)C(=O)N[C@@H](CCCCN)C(=O)N[C@@H](CCCNC(=N)N)C(=O)N[C@@H](Cc1c[nH]cn1)C(=O)N[C@@H](Cc1c[nH]cn1)C(=O)NCC(=O)N[C@@H](Cc1ccc(O)cc1)C(=O)N[C@@H](CCCCN)C(=O)N[C@@H](CCCNC(=N)N)C(=O)N[C@@H](CCCCN)C(=O)N[C@@H](Cc1ccccc1)C(=O)N[C@@H](Cc1c[nH]cn1)C(=O)N[C@@H](CCC(=O)O)C(=O)N[C@@H](CCCCN)C(=O)N[C@@H](Cc1c[nH]cn1)C(=O)N[C@@H](Cc1c[nH]cn1)C(=O)N[C@@H](CO)C(=O)N[C@@H](Cc1c[nH]cn1)C(=O)N[C@@H](CCCNC(=N)N)C(=O)NCC(=O)N[C@@H](Cc1ccc(O)cc1)C(=O)O	Heat shock protein SSA2 (SSA2, Candida albicans, UniProt P46587)	FPLC gel filtration	–	pH 7.4, added: no nucleotide	5400 ± 300 nM
CC(C)C[C@@H]1NC(=O)[C@H](Cc2ccc(O)cc2)NC(=O)[C@H](CCCCN)NC(=O)[C@H](CCCNC(=N)N)NC(=O)[C@@H](Cc2ccc(O)cc2)NC(=O)CSC[C@@H](C(=O)NCC(N)=O)NC(=O)[C@H](Cc2c[nH]c3ccccc23)NC(=O)[C@H](Cc2c[nH]c3ccccc23)NC(=O)[C@H](Cc2ccccc2)NC(=O)[C@H](CCCNC(=N)N)NC(=O)[C@H](CCC(=O)O)NC(=O)[C@H](Cc2ccc(O)cc2)NC1=O	Protein Wnt-3a, with afamin-Fc (Mus musculus, UniProt P27467)	binding, SPR steady-state	–	Fc-captured Wnt3a-afamin-Fc	319 nM
CC[C@H](C)[C@H](NC(=O)CN)C(=O)N[C@H](C(=O)N[C@@H](CC(N)=O)C(=O)N[C@H](C(=O)N[C@@H](CC(C)C)C(=O)N[C@@H](CCC(N)=O)C(=O)N[C@@H](CCCCN)C(=O)N[C@@H](Cc1ccc(O)cc1)C(=O)N[C@@H](Cc1ccc(O)cc1)C(=O)N[C@H]1CSSC[C@@H]2NC(=O)[C@H](CCCCN)NC(=O)[C@H](CCCNC(=N)N)NC(=O)CNC(=O)[C@H](CCCNC(=N)N)NC(=O)[C@H]([C@@H](C)O)NC(=O)[C@H](CO)NC(=O)[C@@H]3CSSC[C@H](NC(=O)[C@H](CCCNC(=N)N)NC(=O)CNC(=O)CNC(=O)[C@H](CCCNC(=N)N)NC(=O)[C@H](C(C)C)NC(=O)[C@H](CCCNC(=N)N)NC1=O)C(=O)N[C@@H](C)C(=O)N[C@@H](C(C)C)C(=O)N[C@@H](CC(C)C)C(=O)N[C@@H](CO)C(=O)N[C@@H](CSSC[C@@H](C(=O)N[C@@H](CCCNC(=N)N)C(=O)N[C@@H](CCCNC(=N)N)C(=O)N[C@@H](CCCCN)C(=O)N[C@@H](CCCCN)C(=O)O)NC2=O)C(=O)N[C@@H](CC(C)C)C(=O)N1CCC[C@H]1C(=O)N[C@@H](CCCCN)C(=O)N[C@@H](CCC(=O)O)C(=O)N[C@@H](CCC(=O)O)C(=O)N[C@@H](CCC(N)=O)C(=O)N[C@@H]([C@@H](C)CC)C(=O)NCC(=O)N[C@@H](CCCCN)C(=O)N3)[C@@H](C)O)[C@@H](C)CC	sapA (Haemophilus influenzae, UniProt Q4QL73)	binding, SPR	–	pH 7.5, 25 °C, added: immobilised full-length defensin	10.5 nM
CC(C)C[C@H](NC(=O)[C@H](Cc1ccccc1)NC(=O)[C@H](CCCNC(=N)N)NC(=O)[C@H](C)NC(=O)[C@H](Cc1ccccc1)NC(=O)[C@H](Cc1ccccc1)NC(=O)[C@@H]1CCCN1C(=O)[C@H](CC(C)C)NC(=O)[C@H](C)NC(=O)[C@H](CCCCN)NC(=O)CN)C(=O)N[C@@H](CO)C(=O)N[C@H](C(=O)N[C@@H](CO)C(=O)O)C(C)C	uncharacterized protein (Microcystis aeruginosa MRC, UniProt B2G3D0)	isothermal titration calorimetry	–	pH 8.0, 25 °C	308 ± 62 nM
CC1=C[C@H](O/C=C2/C(=O)O[C@@H]3c4ccccc4C[C@H]23)OC1=O (racemic)	RMS3	binding, fluorescence	–	–	22000 nM
CC(C)C[C@H](NC(=O)[C@H](C)NC(=O)[C@H](Cc1ccccc1)NC(=O)CNC(=O)[C@@H](N)CCCNC(=N)N)C(=O)N[C@@H](CCCC[N+](C)(C)C)C(=O)N[C@@H](CO)C(=O)N[C@H](C(=O)N[C@@H](Cc1c[nH]cn1)C(=O)NCC(=O)O)[C@@H](C)O	Chromobox protein homolog 7, chromodomain (Homo sapiens, UniProt O95931)	binding, fluorescence polarization	–	added: SETDB1 consensus peptide	5000 ± 500 nM
CSCC[C@H](NC(C)=O)C(=O)N[C@@H](CC(=O)O)C(=O)N[C@@H](CO)C(=O)N[C@@H](CCCCN)C(=O)N[C@@H](Cc1ccc(O)cc1)C(=O)N[C@H](C(=O)N[C@H](C(=O)N[C@@H](CC(C)C)C(=O)N[C@@H](Cc1ccc(O)cc1)C(=O)N[C@@H](Cc1ccc(O)cc1)C(=O)N[C@@H](CCC(N)=O)C(=O)N[C@@H](CC(C)C)C(=O)N[C@@H](Cc1c[nH]c2ccccc12)C(=O)N[C@@H](Cc1c[nH]c2ccccc12)C(=O)N[C@@H](CCCCN)C(=O)NCC(=O)N[C@@H](CO)C(=O)NCC(=O)N[C@@H](CO)C(=O)NCC(=O)N[C@@H](CO)C(=O)N[C@@H](CC(=O)O)C(=O)N[C@@H](Cc1ccc(O)cc1)C(=O)N[C@@H](CCCCN)C(=O)N[C@@H](CC(=O)O)C(=O)N[C@@H](CC(=O)O)C(=O)N[C@@H](CC(=O)O)C(=O)N[C@@H](CC(=O)O)C(=O)N[C@@H](CCCCN)C(=O)N[C@@H](CCCCN=[N+]=[N-])C(N)=O)[C@@H](C)O)C(C)C	FGFR3 (Homo sapiens, UniProt P22607)	binding, BLI	–	–	39.4 nM
O=C(O)C1CC1C(=O)c1ccc(Cl)c(Cl)c1 (stereo not shown)	Kynurenine 3-monooxygenase, residues 1-394 (Saccharomyces cerevisiae, UniProt P38169)	binding, flavin fluorescence	–	wild type	138 ± 8 nM
CCCCCCCCCCCCCCCC(=O)NCCCC[C@H](NC(=O)[C@H](CCCNC(=N)N)NC(=O)[C@H](Cc1ccc(O)cc1)NC(=O)[C@H](CC(C)C)NC(=O)[C@H](CCCNC(=N)N)NC(=O)CNS(=O)(=O)c1ccc(N)cc1)C(N)=O	ompA, beta-barrel domain (Escherichia coli, UniProt P0A910)	binding, surface plasmon resonance	–	β-barrel domain	~96 nM
CC[C@H](C)[C@H](NC(=O)[C@@H](NC(=O)[C@@H]1CCCN1C(=O)[C@@H](NC(=O)[C@@H]1CCCN1C(=O)[C@H](CCCCN)NC(=O)[C@H](CCCCN)NC(=O)[C@H](CO)NC(=O)CNC(=O)CCOCCOCCOCCOCc1cn(CCCNC(=O)CCC2=[N+]3C(=Cc4c(C)cc(C)n4[B-]3(F)F)C=C2)nn1)C(C)C)[C@@H](C)CC)C(=O)N[C@@H](Cc1ccc(O)cc1)C(=O)N[C@H]1CSSC[C@@H](C(=O)N[C@@H](CCC(N)=O)C(=O)N[C@@H](CCCNC(=N)N)C(=O)N[C@@H](CCSC)C(=O)O)NC(=O)[C@H](CCCCN)NC(=O)CNC(=O)[C@H]([C@@H](C)O)NC(=O)[C@H](CCCNC(=N)N)NC(=O)[C@H](CCCNC(=N)N)NC(=O)[C@H](CC(N)=O)NC1=O	lptA (Escherichia coli, UniProt P0ADV1)	binding, FP	–	pH 8	12 nM
CC[C@H](C)[C@H](NC(=O)[C@H](CC(=O)O)NC(=O)CNC(=O)[C@@H](NC(=O)[C@@H](NC(=O)[C@H](CCC(=O)O)NC(=O)CNC(=O)CCCCCNC(=O)CCCC[C@@H]1SC[C@@H]2NC(=O)N[C@@H]21)[C@@H](C)CC)[C@@H](C)CC)C(=O)N[C@@H](CCCNC(=N)N)C(=O)N[C@@H](CCC(N)=O)C(=O)N[C@@H](C)C(=O)N[C@@H](Cc1c[nH]cn1)C(=O)N[C@@H](CO)C(=O)N[C@@H](CC(=O)N[C@@H]1O[C@H](CO)[C@@H](O[C@@H]2O[C@H](CO)[C@@H](O[C@@H]3O[C@H](CO[C@H]4O[C@H](CO[C@H]5O[C@H](CO)[C@@H](O)[C@H](O)[C@@H]5O[C@H]5O[C@H](CO)[C@@H](O)[C@H](O)[C@@H]5O)[C@@H](O)[C@H](O[C@H]5O[C@H](CO)[C@@H](O)[C@H](O)[C@@H]5O[C@H]5O[C@H](CO)[C@@H](O)[C@H](O)[C@@H]5O)[C@@H]4O)[C@@H](O)[C@H](O[C@H]4O[C@H](CO)[C@@H](O)[C@H](O)[C@@H]4O[C@H]4O[C@H](CO)[C@@H](O)[C@H](O)[C@@H]4O[C@H]4O[C@H](CO)[C@@H](O)[C@H](O)[C@@H]4O)[C@@H]3O)[C@H](O)[C@H]2NC(C)=O)[C@H](O)[C@H]1NC(C)=O)C(=O)N[C@H](C(=O)N[C@@H](CO)C(=O)N[C@@H](CCCNC(=N)N)C(=O)N[C@@H](C)C(=O)N[C@@H](CCCCN)C(=O)N[C@@H](Cc1c[nH]c2ccccc12)C(=O)N[C@@H](CC(N)=O)C(N)=O)[C@@H](C)CC	PGT128 antibody	SPR	–	pH 7.4, 25 °C	4350 nM
C#CC[C@H](NC(=O)CNC(=O)[C@H](CO)NC(=O)[C@@H]1CCCCNC(=O)CCCC(=O)N[C@@H](CCSC)C(=O)N[C@@H](Cc2c[nH]c3ccccc23)C(=O)N2CCC[C@H]2C(=O)N[C@@H](Cc2c[nH]cn2)C(=O)N[C@@H](CCCNC(=N)N)C(=O)N[C@@H](C(C)C)C(=O)N[C@@H]([C@@H](C)O)C(=O)N[C@@H](C)C(=O)N(C)[C@@H](C)C(=O)N1)C(=O)O	Microtubule-associated protein 1 light chain 3 alpha (Homo sapiens, UniProt Q9H492)	fluorescence polarization	–	–	121 ± 19 nM
Nc1nc2ncc(CNc3ccc(C(=O)N[C@@H](CCC(=O)NCCOCCOCCNC(=O)CN4CCN5CCN(CC4)CC(=O)[O][Al]([F])[O]C(=O)C5)C(=O)O)cc3)nc2c(=O)[nH]1 [fluorine-18 labelled]	FOLR1 (Homo sapiens, UniProt P15328)	radioligand saturation binding	CAL-51 xenograft homogenate	–	1.1 nM
CC(=O)O[C@@]12COC1C[C@H](O)C1(C)C(=O)[C@H](O)C3=C(C)[C@@H](OC(=O)/C=C/c4ccc5ccccc5c4)C[C@@](O)([C@@H](OC(=O)c4ccccc4)[C@@H]12)C3(C)C (stereo partly shown)	ftsZ (Bacillus subtilis, UniProt P17865)	binding, fluorescence	–	–	29000 nM
CC1=C(C)[C@H](Oc2c(F)cc3c(C)cc(=O)oc3c2F)OC1=O	RMS3	binding, fluorescence	–	–	82600 nM
CC[C@H](C)[C@H](NC(=O)[C@H](Cc1ccccc1)NC(=O)[C@H](CO)NC(=O)CN)C(=O)N[C@@H](Cc1c[nH]cn1)C(=O)N[C@@H](CO)C(=O)N[C@H](C(=O)N1CCC[C@H]1C(=O)N[C@@H](CCCNC(=N)N)C(=O)N[C@@H](Cc1c[nH]cn1)C(=O)O)C(C)C	Angiopoietin-2 (ANGPT2, Homo sapiens, UniProt O15123)	binding, bio-layer interferometry	–	–	3430 nM

Repeated from above:
SMILES	target	assay	system	conditions	Kd
CC[C@H](C)[C@H](NC(=O)[C@H](Cc1ccccc1)NC(=O)[C@H](CO)NC(=O)CN)C(=O)N[C@@H](Cc1c[nH]cn1)C(=O)N[C@@H](CO)C(=O)N[C@H](C(=O)N1CCC[C@H]1C(=O)N[C@@H](CCCNC(=N)N)C(=O)N[C@@H](Cc1c[nH]cn1)C(=O)O)C(C)C	Angiopoietin-2 (ANGPT2, Homo sapiens, UniProt O15123)	binding, bio-layer interferometry	–	–	3430 nM
CC(C)C[C@H](NC(=O)[C@H](Cc1ccccc1)NC(=O)[C@H](CCCNC(=N)N)NC(=O)[C@H](C)NC(=O)[C@H](Cc1ccccc1)NC(=O)[C@H](Cc1ccccc1)NC(=O)[C@@H]1CCCN1C(=O)[C@H](CC(C)C)NC(=O)[C@H](C)NC(=O)[C@H](CCCCN)NC(=O)CN)C(=O)N[C@@H](CO)C(=O)N[C@H](C(=O)N[C@@H](CO)C(=O)O)C(C)C	uncharacterized protein (Microcystis aeruginosa MRC, UniProt B2G3D0)	isothermal titration calorimetry	–	pH 8.0, 25 °C	308 ± 62 nM
